Experimental data gathered from unrelated publications.
Parts stem from different laboratories: compare values within a part only. Substitutions count along the parent as printed.

Block 1
Target: Phosphate system positive regulatory protein PHO4, full length, GST-tagged (PHO4, Saccharomyces cerevisiae, UniProt P07270, residues 1-312)
Technique: competition protein-binding microarray
Molecule type: double-stranded DNA, one strand shown
Medium: in vitro
Tested at: 2 µM
Setting: whole 60-bp probe, lowest competitor level
With: Cbf1 competitor, 0.05 µM
Reading: higher = stronger binding
Shared flanks, not repeated: … GTCTTGATTCGCTTGACGCTGCTG
Target sequence (chain): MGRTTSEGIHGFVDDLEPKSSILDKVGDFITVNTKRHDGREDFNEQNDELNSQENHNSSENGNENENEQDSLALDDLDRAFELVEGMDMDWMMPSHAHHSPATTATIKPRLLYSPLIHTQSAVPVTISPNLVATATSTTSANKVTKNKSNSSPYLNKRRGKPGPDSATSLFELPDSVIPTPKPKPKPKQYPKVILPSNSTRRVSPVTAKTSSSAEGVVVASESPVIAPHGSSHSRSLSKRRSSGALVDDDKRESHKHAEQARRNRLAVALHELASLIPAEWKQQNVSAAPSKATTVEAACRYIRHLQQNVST
Strand	fluorescence intensity [a.u.]
CTAACGAAGGTTTGGGGTGTGGGTGACAAGCCAAGT	6090
CTTTCCCGATCTTGTGTAGTGGGTGTAGCACATTTG	5370
CTTGAATAGTCATCGCACGATTCTGGAGTGTAAGCA	7880
CAGAGTAATGACTGTCATGATGAAGGCAAAAGGAGA	3600
CTTGGTATCAATTTCTTCGTGCTTTGCTTGGTTGAA	4480
TAGGAAGAAGAACTCGTCGTGCAAATCGGATAGTTG	5360
AAGTTTGTAATTTTCCTCGTGTCCATAGTGGAAGAT	10100
ATCAAATGCTGATACCACATGTATGCTATAGTGTCG	10600
AAATTACTAAGTTGCACGGTGGGTGACGCCGTATGA	7060
GAATTTGACCAAAACCACGTGGTTTGGCTGCAAGTT	17200
CATACCCAACCTTGTCACGGCACTTAAGATATTTGT	4290
GAGACTTTCAGCCATCACGTGTAATAAAATATCACC	12700
TTGAGCTACCCTTTGCACGTTCTTTCCAATATGCAG	12400
GATCAGCATATCCGTCACGTTCTGCTCATCGGGACT	12800
AATCTTTCAATCGCCATCGTGGGTAAGGATACGCCT	10500
CTTCTGTAAATTTGGTTAGTGGGTGGACGCGCCCCG	4420
GCCCGGACACAGGGAATCGTGCGGAGCCGGGGATAA	5550
CGGGGTTAAGTTTGTCACCAGACTTGCTTGCAGCAG	3630
CTTTGTGATAGGCTTCACGTGTGAAATTGACACAGA	11400
TTCAAGGATCGAAAGCACGTCGCATAATACGGTAAT	7710
GTCTTGTCTCATTGTCACCTCACTTTCCCCACTTCA	4940
AAAGCGGTAATTTGGTAGGTGGGTGCAGATATCTAT	4600
GTCCGCCATGTCCAACACGTTGCTGGCCGCAAAACG	12900
TGAAAAACTGCTTGATTCGTGCTTTTAACTCAGAGG	5840
GCCTTTTCCATCGACCACGTTGACAAATACGGCATC	12500

Block 2
Target: ABI1, truncated, D143A, DHFR fusion (Arabidopsis thaliana)
Technique: DHFR PCA, deep sequencing
Medium: yeast
Setting: methotrexate growth selection, single substitutions
With: (+)-ABA 58 µM
Reference: wild-type fitted maximum
Reading: higher = stronger binding
Starting sequence: PYL1, truncated, DHFR fusion (Arabidopsis thaliana); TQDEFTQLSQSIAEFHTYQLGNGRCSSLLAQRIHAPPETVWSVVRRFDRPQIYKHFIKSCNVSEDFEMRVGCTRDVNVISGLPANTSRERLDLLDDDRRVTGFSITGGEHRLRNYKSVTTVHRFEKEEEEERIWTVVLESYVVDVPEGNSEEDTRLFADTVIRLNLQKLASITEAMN; partner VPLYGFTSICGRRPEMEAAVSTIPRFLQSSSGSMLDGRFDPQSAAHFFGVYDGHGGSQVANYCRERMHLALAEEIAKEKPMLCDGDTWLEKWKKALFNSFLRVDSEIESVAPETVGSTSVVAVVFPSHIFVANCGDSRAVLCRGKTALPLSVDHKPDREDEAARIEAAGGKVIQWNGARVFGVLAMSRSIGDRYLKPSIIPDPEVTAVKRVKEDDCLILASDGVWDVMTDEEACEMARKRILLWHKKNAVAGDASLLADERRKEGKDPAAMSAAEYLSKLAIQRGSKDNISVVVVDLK
Variant	relative binding score [%]
R24G	56.2
T173F	60.1
E14Y	49.5
Y18F	77.5
C72T	78.3
I52N	71.7
V78C	84.5
G21H	82
E139A	55.6
S59A	80.9
D95W	22.3
N149C	41.6
E67D	90.1
G81D	14.5
H110W	22.7
D144W	9.91
E125A	94.3
S150Q	55.6
Q31F	32.4
S117Q	50.1
V142P	-3
R90D	10.2

Block 3
Target: CCNB3, cyclin fold, Cln2 fusion (human)
Technique: yeast growth competition, sequencing
Medium: yeast
Setting: weak parent motif
Reference: not given
Reading: higher = stronger binding
Starting sequence: PKMYT1 docking peptide (human); SFEPRNLLSLFED
Variant	normalised enrichment score
SFEPSNLLSLFED [R5S]	0.466
SFEPRALLSLFED [N6A]	0.717
SFEPRNLLFLFED [S9F]	0.62
SFEPRNLLSLFEF [D13F]	0.643
MFEPRNLLSLFED [S1M]	0.692
SFEPRNLQSLFED [L8Q]	0.281
SFEPRNMLSLFED [L7M]	0.405
SFSPRNLLSLFED [E3S]	0.381
SFEPRNLLSLFVD [E12V]	0.184
SFEPRNLLSLFEG [D13G]	0.76
SFGPRNLLSLFED [E3G]	0.14
SFEPWNLLSLFED [R5W]	0.595
SFEPRNLLSLMED [F11M]	0.282
SFEPRNLLALFED [S9A]	0.609
SFPPRNLLSLFED [E3P]	0.915
SCEPRNLLSLFED [F2C]	0.586
STEPRNLLSLFED [F2T]	0.708
SFEPRNLLSLFET [D13T]	0.371
SFEPHNLLSLFED [R5H]	-0.0366
SFEPFNLLSLFED [R5F]	0.292
SFEPRNLLSLFEW [D13W]	0.373
SFEPRNLHSLFED [L8H]	0.203
SFEPRNLLSLVED [F11V]	0.275
SFEPRNLLSLPED [F11P]	0.167
SFEPRNLLSLFEA [D13A]	0.857

Block 4
Target: PABPC1L2, full length, GST fusion (mouse, UniProt A0ABA7IW68)
Technique: RNAcompete
Molecule type: RNA
Medium: in vitro
Tested at: 20 nM
Setting: 7-mer, probes averaged, single round
Reference: mean of 7-mers
Reading: higher = stronger binding
Target sequence (chain): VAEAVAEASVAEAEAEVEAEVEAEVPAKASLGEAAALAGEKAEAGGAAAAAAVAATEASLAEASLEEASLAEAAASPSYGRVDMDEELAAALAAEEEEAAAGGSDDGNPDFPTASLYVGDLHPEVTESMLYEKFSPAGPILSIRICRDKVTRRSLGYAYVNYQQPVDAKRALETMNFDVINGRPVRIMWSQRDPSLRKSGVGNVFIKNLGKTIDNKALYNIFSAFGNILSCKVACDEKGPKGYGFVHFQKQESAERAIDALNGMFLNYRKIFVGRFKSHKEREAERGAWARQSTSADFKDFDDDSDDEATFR
Strand	7-mer Z-score
CCGAGCC	-0.286
GAAUAAC	-0.0228
UACUCCC	-0.277
UAUACCU	-0.311
GCGGCGA	0.401
AGGCAUG	0.128
AGUAUAC	-0.195
ACUUUGA	-0.0482
GCUCAGG	0.109
GUAGUCU	-0.255
CGGACGU	-0.0627
GCAUCUG	-0.0174
GAUUGGU	-0.224
UAGUUAC	-0.228
UGAGCGC	-0.269
AUCUGGG	0.126
ACUGACU	-0.0663
UCGACUC	-0.335
CUGUGUC	-0.273
UAAGUUU	-0.306
UUAGCGA	0.0261
CGGCCGU	-0.266
UUCAAGU	-0.253
AUGGAUU	-0.146
CGAUUCG	-0.385

Block 5
Target: RNA binding protein fox-1 homolog 2, RRM domain, GST-SBP tag (RBFOX2, Homo sapiens, UniProt O43251-10, residues 100-194)
Technique: RNA Bind-n-Seq
Molecule type: RNA
Medium: in vitro
Tested at: 365 nM
Setting: natural RNA segment, single round, ends assumed
Reference: no-protein control
Reading: higher = stronger binding
Shared flanks, not repeated: GGGAGUUCUACAGUCCGACGAUC … UGGAAUUCUCGGGUGCCAA
Residues (chain): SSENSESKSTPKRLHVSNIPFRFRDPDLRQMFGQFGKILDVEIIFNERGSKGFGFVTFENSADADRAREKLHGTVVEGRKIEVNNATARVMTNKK
Strand	RBNS enrichment (R)
UUUUAACGCACAACUUGCUUGUACAGUAAACUGUCUUCUGUACUAUUUAACUGUAAAAUGGAAUUUUGACUGAUUUGUUACAAUAAUAUAACUCUGAGAUGUGUGGAAGG	0.509
ACCCGGAGCACUUCCUUUGCAGCGGUUGUUCCACAACCCUGGGAGGCAGCAGCUUCUUCGAGAAGGAUGGGGCUCCCUUUUGCCCCGAGUGCUACUUUGAGCGCUUCUCC	0.165
UUCCUCCCUGUCUCUGCAUCUGACUCUCUUUUGAGGUCCCUGUAUGUCUACCUCUGACUUCUGUGGUCCCUCUGUGUCUGCUCUCAUCCAUUCCUCUUACUGGGGCCUGG	0.673
UCUCUAUGACCAGGCACUUAAACAUAAUUUAAAAGUCCUUGUAGCUUCAGAACCGGAUAAGUUCCAGUUGCAUAUCUCUAUAUCUCCUGGUUUCCCUCUUGGUUUUCCCC	0.27
CUUCUGGCUGGCUUCUCUCUGCCAGGGGCUCAGAAGGGGCACAAAAGGGGGUCAAGAAAAGAGCAACAAAGCAAAAUUGUUCUUCCUCUUCCCUUCCCUGAUGCCAGGGG	0.337
UUGUGCUUUGAAGAGAGUGAAUUUUGGAUAGUCUUGUGAUUCUCAGACUAACUUCCAGAAUUAUACUUUAACCCCUCCCAGAUAUGGUCCGCCUUUGGCAUUGUGUGUAC	0.78
UUAUAGGUAGGGGCCCCACCCUCUGGGCUUCCCAUCAGCGACACACACACACUUAUGGCACCAGCCUGGACUCCAGAAAAAGGGUGUCCAGGUAUUGUGUGUAUGCAUUU	0.455
CACUGUGGCCCUAGAAAACGAAGAUGAAGCCUCCACUGACCACUGUGUCCUCUCUGACUUGGCCAGCCUGAUGGUCCUUCCUUCUACUCUGUGUAGUCAUUCCUAAGCCC	0.488
UCAAGAAUUUUCUGGAAAUUACUCCCUUUCACAUGGUUGAACUCUUAAGUUGACCAGUUCUCAUAGCUCUAUCACUAGAAUGGUUUGCAGAUACCCCAAACAUACUAUGA	0.418
UUUAAUAUAUGACAGUUAUUUGAGAAGCCAUUUCUACUUUGAAGUCAUUAUCGAUGAAAGUGAUGUAUCUUCACCUACCAUUUUCCUAAUAAAGUUCUGUAUUCAAAUAU	0.474
CUUUUCUGCCUUGAGGGGCAGUUUUGGGAGAUGAAAGGGAUUAGUGUGGACCCAGUCUAGGCACCCCAGUACUUCCCUUCACCUUGUAGAAAAUGGUAAUGAAAGGGCAU	0.59
AGAGGUAGGGACUAAGCACCAGGUGCCAGCAGGCCCUCCUGCUGUGGCCACUCCAGAGUGCUCCGUGUCUCCAUGUGUCCGUGGCCUGCCCCCCCCCCAACCCCCCAAAU	0.264

Block 6
Target: Sal-like protein 4, full length isoform B (SALL4, Homo sapiens, UniProt Q9UJQ4-2, residues 1-616)
Technique: universal PBM
Molecule type: double-stranded DNA, one strand shown
Medium: in vitro
Tested at: not given
Setting: 8-mer, flanks averaged, mean of replicates
Reading: higher = stronger binding
Strand	E-score
GTCCAGAA	-0.0331
GACAATAA	0.299
GACAACGC	-0.16
CGGTACGC	-0.184
AGTATACG	0.229
AGCTTCCA	-0.119
GTAGTTAA	0.105
AATCGGAT	0.0901
AGCCACCC	-0.232
CCAAGTAC	-0.0307
CGGCGAGC	-0.315
ATATTTAG	0.406
GCCTAGTA	-0.017
CCATTACA	0.272
CCTTGGAA	-0.00894
CTCTCGAA	-0.0369
TAATTGGA	0.206
CCTAGTCG	-0.0291
ACGTTTAT	0.296
ATGCTCAA	0.094
ACGGGCAT	-0.173
ACGGAAAC	-0.0708

For quick reference, copied from above (block 4):
Strand	7-mer Z-score
CCGAGCC	-0.286
GAAUAAC	-0.0228
UACUCCC	-0.277
UAUACCU	-0.311
GCGGCGA	0.401
AGGCAUG	0.128
AGUAUAC	-0.195
